Experimental data collected from several papers.
Each line is one published result; not all experiments were run side by side. Numbers after ± are the reported error.
Matrix: plasma

SMILES	test	test system	setting	Tmax [h]
CN(CCC(=O)O)C(=O)c1ccc2c(c1)CC[C@@H]1[C@@H]2CC[C@]2(C)C(c3cncc(F)c3)=CC[C@@H]12	–	premenopausal women	60 mg twice daily, after day 14, multiple dose, median	1.93
C[C@@](Cc1ccc(O)c(O)c1)(NN)C(=O)O	–	Parkinson's disease patients	oral, high levodopa Cmax subgroup (≥9 µmol/L), median	1.75
C[C@H]1CN(C(=O)CC#N)[C@]12CCN(c1ncnc3[nH]ccc13)C2	–	healthy adults	oral, 12 mg single dose, median	1
C[C@H]1[C@H]2N(C(=O)CN(C)N2C(=O)NCc2ccccc2)[C@@H](Cc2ccc(OP(=O)(O)O)cc2)C(=O)N1Cc1cccc2cccnc12	–	patients	intravenous infusion, 140 mg/m2 over 4 h, mean	0.8
CCCCCCCCCCCCCCCC(=O)N[C@@H](CCC(=O)NCCCC[C@@H]1NC(=O)[C@H]([C@@H](C)CC)NC(=O)[C@@H](NC(=O)[C@@H]2CCCN2C(=O)[C@H](Cc2ccccc2)NC(=O)[C@H](Cc2c[nH]cn2)NC(=O)[C@@H](NC(=O)[C@H](CC(=O)O)NC(=O)CC(C)C)[C@@H](C)O)CSSC[C@@H](C(=O)N[C@@H](CCCCN)C(N)=O)NC(=O)CNC(=O)[C@H](CCCCN)NC(=O)[C@H](CO)NC(=O)[C@H](CCCNC(=N)N)NC(=O)[C@@H]2CCCN2C(=O)[C@H](CCC(=O)O)NC(=O)[C@H](Cc2ccccc2)NC1=O)C(=O)O	–	healthy volunteers	subcutaneous, 60 mg single, lyophilised formulation, median	2
O=C(c1cccnc1-c1ccncc1)N1CCC(O)(Cc2ccccc2)CC1	–	healthy Japanese adults	oral, 200 mg twice daily, day 14, median	0.5
CS(=O)(=O)c1ccc([C@@H](O)[C@@H](CF)NC(=O)C(Cl)Cl)cc1	–	chicken (Arbor Acres)	oral, 20 mg/kg, together with: saline pretreatment	0.8 ± 0.11
COc1nnc2ccc(N3CCC(c4ccc(OCCN5CCN(C)C(=O)[C@H]5C)cc4)CC3)nn12	–	patients	oral, 20 mg twice daily, multiple dose, monotherapy, median	1
CCCCC[C@H](O)CC[C@@H]1[C@H]2Cc3cccc(OCC(=O)O)c3C[C@H]2C[C@H]1O	LC-MS/MS	Japanese PAH patients, male	inhaled, 54 µg, mean	0.32
CO[C@H]1CC[C@H](N2C(=O)CNc3ncc(-c4ccc(C(C)(C)O)nc4)nc32)CC1	–	patients	oral, 60 mg, day 15, median	1.58

For quick reference, copied from above:
SMILES	test	test system	setting	Tmax [h]
C[C@H]1CN(C(=O)CC#N)[C@]12CCN(c1ncnc3[nH]ccc13)C2	–	healthy adults	oral, 12 mg single dose, median	1
